Assay results collected from several papers.
Protocols differ between the studies behind these lines.
Observed: metabolic stability

| Structure (SMILES) | test system | setting | half-life [min] |
| --- | --- | --- | --- |
| Cl.N=C(N/N=C/c1cnc2cc(Cl)ccc2c1)N/N=C/c1cnc2cc(Cl)ccc2c1 | mouse, liver microsomes | 1 µM, pH 7.4 | 24.9 |
| CC(C)n1ncc2c(C(=O)NCC(C)(C)N(C)C)cc(C3CC3)nc21 | mouse, liver microsomes |  | 45.6 |
| Cc1ncsc1-c1ccc([C@H](CC(=O)NCCCCCCCCCCC(=O)NCCCn2cc(-c3ccc4c(c3)CCN4C(=O)Cc3cccc(OC(F)(F)F)c3)c3c(N)ncnc32)NC(=O)[C@@H]2C[C@@H](O)CN2C(=O)[C@@H](NC(=O)C2(F)CC2)C(C)(C)C)cc1 | mouse, liver S9 | 1 µM | 18 |
| O=c1c2c([nH]c3cc(Nc4ccc(OC(F)(F)F)cc4)ccc13)CCCC2 | mouse, liver microsomes | 1 µM, pH 7.4 | 17.2 |
| CC(C)C[C@@H]1CCO[C@@H]2[C@H](CN[C@@H]2C(=O)N[C@H]2[C@H]3O[C@H](SCC/C=C\[C@H]2C)[C@H](O)[C@@H](O)[C@H]3O)C1 | mouse, liver microsomes | pH 7.4 | 34.5 |
| O=c1c2c([nH]c3ccc(F)c(Oc4ccc(OC(F)(F)F)cc4)c13)CCCC2 | mouse, liver microsomes | 1 µM, pH 7.4 | 28.3 |
| O=C(COc1ccc(N2C(=O)[C@@H]3[C@@H]4C=C[C@@H]([C@H]5C[C@@H]45)[C@@H]3C2=O)cc1)c1cc(Cl)cc(Cl)c1 | female CD-1 mouse, liver S9 |  | > 206 |
| Cc1ncsc1-c1ccc(C2(NC(=O)[C@@H]3C[C@@H](O)CN3C(=O)[C@@H](NC(=O)CCCCCCCCCCC(=O)N3CCC(n4cc(-c5ccc6c(c5)CCN6C(=O)Cc5cccc(OC(F)(F)F)c5)c5c(N)ncnc54)CC3)C(C)(C)C)CC2)cc1 | mouse, liver S9 | 1 µM | 48 |
| Cl.N=C(NN=Cc1ccc(OC(F)(F)F)cc1)NN=Cc1ccc(OC(F)(F)F)cc1 | mouse, liver microsomes | 1 µM, pH 7.4 | 172 |
| O=c1c2ccc(OCc3cccc(OC(F)(F)F)c3)cc2[nH]c2cc(F)cc(Cl)c12 | mouse, liver microsomes | 1 µM, pH 7.4 | > 60 |
| Cc1ncsc1-c1ccc([C@H](C)NC(=O)[C@@H]2C[C@@H](O)CN2C(=O)[C@@H](NC(=O)CCN2CCC(C#Cc3ccc(C(=O)NCCCn4cc(-c5ccc6c(c5)CCN6C(=O)Cc5cccc(OC(F)(F)F)c5)c5c(N)ncnc54)cc3)CC2)C(C)(C)C)cc1 | mouse, liver S9 | 1 µM | 15.6 |
| Cl.N=C(N/N=C/c1ccnc2cc(Cl)ccc12)N/N=C/c1ccnc2cc(Cl)ccc12 | mouse, liver microsomes | 1 µM, pH 7.4 | 46.4 |
| CNCCNC(=O)c1cc(C(C)C)nc2c1cnn2C(C)C | mouse, liver microsomes |  | 7.9 |
| Cc1ncsc1-c1ccc([C@H](C)NC(=O)[C@@H]2C[C@@H](O)CN2C(=O)[C@@H](NC(=O)CCCN2CCN(CCCC(=O)NCCCn3cc(-c4ccc5c(c4)CCN5C(=O)Cc4cccc(OC(F)(F)F)c4)c4c(N)ncnc43)CC2)C(C)(C)C)cc1 | mouse, liver S9 | 1 µM | 9.8 |

Excerpt of the above:
| Structure (SMILES) | test system | setting | half-life [min] |
| --- | --- | --- | --- |
| O=c1c2ccc(OCc3cccc(OC(F)(F)F)c3)cc2[nH]c2cc(F)cc(Cl)c12 | mouse, liver microsomes | 1 µM, pH 7.4 | > 60 |
| CC(C)C[C@@H]1CCO[C@@H]2[C@H](CN[C@@H]2C(=O)N[C@H]2[C@H]3O[C@H](SCC/C=C\[C@H]2C)[C@H](O)[C@@H](O)[C@H]3O)C1 | mouse, liver microsomes | pH 7.4 | 34.5 |
